Measured values pooled from the literature.
Lines come from different studies, so protocols differ. Numbers after ± are the reported error.
Medium: plasma

Structure (SMILES)	test	system	conditions	AUC(0-24h)
Cc1ncc(CO)c(C(=O)O)c1O	–	human, both sexes	dose not given, population mean baseline	0.0709 µg·h/mL
Cn1c(Cn2ccc(C(F)(F)F)c(Oc3cc(Cl)cc(C#N)c3)c2=O)n[nH]c1=O	–	human	oral, 100 mg once daily, day 19 of, geometric mean, with: islatravir 2.25 mg once daily	38.6 µM·h
CC(C)n1nc(-c2ccc3oc(N)nc3c2)c2c(N)ncnc21	–	human patients	oral, 2 mg single dose, single agent run-in	0.173 ± 0.107 µg·h/mL
Cc1ccc(NC(=O)c2ccc(CN3CCNCC3)cc2)cc1Nc1nccc(-c2cccnc2)n1	–	human patients	oral, 400 mg/day of imatinib, day 10 of cycle 1	7.7 µg·h/mL
CCN(CC)CCNC(=O)c1c(C)[nH]c(/C=C2\C(=O)Nc3ccc(F)cc32)c1C	LC-MS/MS	human, cancer patients on efavirenz	oral, 50 mg/day, cycle 1 day 1	0.264 ± 0.0497 µg·h/mL
COc1cccc(-c2ccc(NC(=O)C3=C(C(=O)O)CCC3)c(F)c2)c1	–	human, male	oral, 50 mg once daily, day 0, geometric mean	82.1 µg·h/mL
C#C[C@]1(O)CC[C@H]2[C@@H]3CCc4cc(O)ccc4[C@H]3CC[C@@]21C	–	human, postmenopausal women with type 2 diabetes	oral, 0.03 mg daily for 8 days, with: semaglutide 1.0 mg sc weekly	0.000829 µg·h/mL
FC(F)(F)c1ccc(CNc2ccc(Cc3c[nH]c4ncc(Cl)cc34)cn2)cn1	[14C]-labelled mass balance	human male	oral, 400 mg	27.7 µg·h/mL
O=C([O-])CCCCCCCNC(=O)c1ccccc1O.[Na+]	–	human, normal hepatic function	oral, 300 mg once daily, day 10, geometric mean	1.09 µg·h/mL
CCN1C(=O)CNc2ncc(-c3ccc(-c4nc[nH]n4)nc3C)nc21	–	human	oral, 15 mg twice daily, multiple doses	2.06 µg·h/mL
CC(=O)c1c(C)c2cnc(Nc3ccc(N4CCNCC4)cn3)nc2n(C2CCCC2)c1=O	–	human patients	oral, 125 mg once daily, steady state, geometric mean, with: inavolisib + letrozole	1.65 µg·h/mL
CS(=O)(=O)n1cc2c(n1)CN([C@H]1CO[C@H](c3cc(F)ccc3F)[C@@H](N)C1)C2	–	healthy male human	oral, 0.5 mg, fasted, geometric mean	0.092 µM·h

Excerpt of the above:
Structure (SMILES)	test	system	conditions	AUC(0-24h)
CCN(CC)CCNC(=O)c1c(C)[nH]c(/C=C2\C(=O)Nc3ccc(F)cc32)c1C	LC-MS/MS	human, cancer patients on efavirenz	oral, 50 mg/day, cycle 1 day 1	0.264 ± 0.0497 µg·h/mL
